Results pooled from the literature.
Every numbered part comes from another study and shows a few of its results, in no order.

Series 1
Target: RNA binding protein fox-1 homolog 2, RRM domain, GST-SBP tag (RBFOX2, Homo sapiens, UniProt O43251-10, residues 100-194)
Method: RNA Bind-n-Seq
Form: RNA
Medium: in vitro
Tested at: 365 nM
Setting: natural RNA segment, single round, ends assumed
Baseline: no-protein control
Direction: higher = stronger binding
Shared flanks, not repeated: GGGAGUUCUACAGUCCGACGAUC … UGGAAUUCUCGGGUGCCAA
Target sequence (chain): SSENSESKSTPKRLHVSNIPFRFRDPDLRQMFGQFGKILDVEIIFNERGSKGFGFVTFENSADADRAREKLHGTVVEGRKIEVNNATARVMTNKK
Oligonucleotide	RBNS enrichment (R)
GCUUGAUAUUGCCUAGCUUUGUUGUUUUAAUUAACUUUCUAUUAGAGAGACUGUAUAUAUUUUUUCUAAAUACUUUGUGAAAUCAUUUUUGGUAGCAAUAUCUUUGAAUA	0.622
GCACUUUAAGUAUGUGCAGUUUGUUGUAUGUCAAUUAUACCUCAAUAAAUCUGUAAUAAAAAACUAAUUAAACCUUGCAUUAAAAUAAUAUCACAGUAUCAGUGGACUAA	0.514
AUAUUUCCACCUAUGGCAGGGGUACAGAGAACAUUAAAAGGACCCAUUCUGUAAAUCCUGAUGAUCGAUUUUGUCUAAGUAGCCCCACUGAGGCGUUGAGAAUGGGGCAU	0.903
CACAGCACAGUUUCCUCCCUGAGCCCCAGCCGUGGGGAACAUCUGGAGUCAACAGAGUCACUGGGAACUGAGGCAGGAGUAUCAUCUGUGGGAGCUGGCUGCCCCACCCA	0.359
UUGCACUAGCCACACAAAAUGCUCAGUCACCAUCCCCCGGGCACCGAGGGUUAAGCUGGUUUAGCAGGUCAUUGCUCAGCUUUGCUUGUCUCCCUGGGCAAGGGAAGGGG	0.26
GUAUAUUUUGGGCACACAGUGAAAAGUGAGCCAUAGAUGGAGCUUCUUGCUGAUCACAUUGACACUGUCUGUGUUUGAUUUGCUGAGCUCUUGGAUGUUGGGAGUGUAGC	0.402
AUUUAUAAGUGCUGCUUACAUCACUGAACAACAACAAAAAAAUAAUAAUGGAGUAGCUGUUGCCCUUCUCCGGUUGUGUGUACAGUAUGUGUGGAAUAAAAAAGGGAAAC	0.695
CAACAAUUAAUAGUUGAAAUUGUGAGGUUAAUGUUUAAAAAGCUUUACACCUGUUUACAAUUUGGGGACAAAAAGGCAGGCUUCAUUUUUCAUAUGUUUGAUGAAAACUG	0.498
UUGCUCUGCUUUUGAACCAGUGUUGGGGGAUUCCCUGUCGUGCUGGGUUGGGACUGUGGAGGCGGCACCCUCUUUAUCCCCUGCUAUCACAGAUGAUCUGUUCACUUGAA	0.277
GCUGAUGGACUGUGCCCACCUUGUGAAGGCCAAUAGCAUUCAAGGUAAAAAUUGUGACAGUGGAGAAGAAAGUAAAUGAGAUCCUGAACCGAUUAGAAAAGACCAAAGUC	1.41
ACCAUUUGAAGUCAGCUAAUUUGACUUUUAUGGCUCUGUCUUUUUCUUUCAUGAAGAACCCUGUUUAAAACUGGGGUCAUUAACUGUUCUAUUCUAACAAAGUAGUCUUG	0.371
AAAGUGGAAACCGCUUCCCUUUUCUCCUCUGUGGCAGUUACAAUUUUGACUUCAGGCCUGAGAAAAACUUCAGGUUUCGAAACAUGACAUCUCUUCCUUUUCCAGAUCCC	0.38

Series 2
Target: RING finger protein unkempt homolog, zinc fingers 1-6, GST-SBP tag (UNK, Homo sapiens, UniProt Q9C0B0, residues 30-357)
Method: RNA Bind-n-Seq
Form: RNA
Medium: in vitro
Tested at: not given
Setting: RNA with constant flanks, human and mouse sites, ends assumed
Baseline: input RNA pool
Direction: higher = stronger binding
Shared flanks, not repeated: GGGAGUUCUACAGUCCGACGAUC … CAACAGAGGAUUGAGCAUCA
Residues (chain): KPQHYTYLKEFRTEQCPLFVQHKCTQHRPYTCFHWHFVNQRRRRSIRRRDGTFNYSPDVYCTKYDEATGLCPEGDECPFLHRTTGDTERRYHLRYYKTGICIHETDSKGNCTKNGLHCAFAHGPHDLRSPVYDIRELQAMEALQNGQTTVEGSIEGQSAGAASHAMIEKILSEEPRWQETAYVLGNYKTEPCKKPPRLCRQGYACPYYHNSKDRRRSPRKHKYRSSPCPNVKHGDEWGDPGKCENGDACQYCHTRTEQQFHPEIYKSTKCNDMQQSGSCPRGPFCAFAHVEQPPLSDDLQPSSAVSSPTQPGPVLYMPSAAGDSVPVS
Oligonucleotide	bound/input enrichment [ratio]
AUAGAACCAAGUAGCAAUAAAGAUGAUGAUUUUCUUGAAAAAAAUGGAGCUGAUGAAAAAUUAGAGCAAAUUCAGAGUAAAGACUCAUUGGAUGAGAAAAAUAAAGCUGAUAAUAAUAUU	9.01
GAACAGCUCAAGAAGAAAACACUGGAGGUGACAGUUUGGGAUUAUGAUAGAUUUUCAUCCAACGACUUCCUUGGGGAGGUAUUGAUUGAUUUAUCUAGCACAUCUCACCUCGAUAACACU	0.193
GUUUAUGUUCCAGAUGAAAAUAAUACUAUUUUGGGGAGAAAUACAAAUAAACAAGUUUUUGAAGGCUUGACAACUGGACUUCUCAAAGUCAGUGCUGUGGUUUUGGGCUGCCUGAUUGCC	0.348
GAUUCACUCCCUCUGGUUGAUACCCACUCAAAAAGGACACUUCUGAUUAAGACGGUUGAAACUAGAGAUGGACAGGUUAUCAACGAAACUUCUCAGCAUCACGAUGACCUUGAAUAAAAA	0.147
AGAAGGAACACCUUCCAAAUUUUGCUUCAAGCUCUGAAAAAAGGAGCACACAGGGGAACCUUAGUCUUGCUUGUGGAUCGAAGCAAAUACUAUCACAGCGAGGAACUGGGACUUUGUGUG	0.0568
GGAUCUGAGAACAAGCUCAUUUCUGUGAGAUGGAAGAGCAUGCCAUAGGCCAAGAGUUGAGUAAAGGUUUACUCUGAAGAUUAAUUUUAACAUUUUUGUUAAUAUUGCAAUUUUAACAAA	1.67
GCUGUCCGGAAGGUCCUACAUAAGGACAAGUCACAAGAGAAUGCAGGCAUGUUCAAGAAUGGAGGCCUCCUUUUCCGAAUAGCCCUACUUACCAUUGGAGGCACCAGCAUGCUUUAUAUA	0.361
GUAUCUAAAUGUUCUGAGGAAAUAAAGAACUACAUUGAAGAACGUUCUGGAGAGGAUCCUCUGGUAAAGGGAAUCCCAGAAGACAAGAAUCCCUUCAAAGAAAAGGGCAGCUGUGUCAUU	0.147
GUUUACAUCUUUGGUGAUGGACGAGGCCUUAUUGAAGGAAAUGACAUUUAUGGCAAUGCAUUAGCAGGAAUUCAAAUUAGGACAAACAGUUGUCCAAUUGUUCGGCAUAACAAAAUUCAU	0.173
UCUCUGUUCAGCUGUUAAUGCUGGGAUCCAUAUUUAGUUUUAUAAGCUUUUCCCUGUUUUUAGUUUUGUUUUGGGUUUUUUGGCUCAUGAAUUUUAUUUCUGUUUGUCGAUAAGAAAUGU	198
AUUGAUGUUUACGUUAAGAUGAUGUGACCUACACAGAGCAAUUCUAAGAUCUUUCUAAGAUGUUACAUACACAGAGCAAUUCUAAGAUCUUUCUAAUUGCUUGUUUGAGGGAUAUCAUUA	0.18

Series 3
Target: Myc proto-oncogene protein, bHLH-zipper, MAX partner unstated (MYC, Homo sapiens, UniProt P01106, residues 368-449)
Sequence of UniProt P01106 (368-449, looked up): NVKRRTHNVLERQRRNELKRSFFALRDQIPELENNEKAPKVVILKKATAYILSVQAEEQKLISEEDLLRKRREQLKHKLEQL
Method: protein-binding microarray
Form: double-stranded DNA, one strand shown
Medium: in vitro
Tested at: not given
Setting: k-mer, scored over probes, only values ≥0.25
Direction: higher = stronger binding
Oligonucleotide	E-score
GTGCACAC	0.285
CGTGTTGA	0.288
ATCTCGTG	0.356
CTCCACGC	0.41
CAGACACG	0.384
ACAACACG	0.348
CATGTAGC	0.253
ACGTGCGG	0.416
CATGGTCC	0.394

Series 4
Target: Interferon regulatory factor 5, full length, phosphomimetic (IRF5, Homo sapiens, UniProt Q13568-2, residues 1-514, S451D/S453D/S456D/S462D)
Method: protein-binding microarray
Form: double-stranded DNA, one strand shown
Medium: in vitro
Tested at: 940 nM top
Setting: 60-bp whole probe
Added: salmon DNA 0.4 mg/ml
Baseline: random background probes
Direction: higher = stronger binding
Shared flanks, not repeated: GCCTAGCAC … GTCTTGATTCGCTTGACGCTGCTG
Oligonucleotide	fitted relative affinity [z-score]
GACGGTCTCCTTTTCCTGAAGTGCTAG	0.857
TTAGATAGCGGGTATCGATTAGTGCTA	2.66
TCATATTAAATTTTCACACTGTGCTAG	0.763
TCAGCTTTGTGCCTAGCACTGTGCTAG	-0.249
TCATTTTTACTTTCTGAACTGTGCTAG	1.8
TCAATTTTCCAAATGCCACTGTGCTAG	0.232
AGGACCATCTCATATAAATAGGTGCTA	0.479
TTAGGTTTCGGGTTTCGGATAGTGCTA	10.6
GACGAACTGAGATTCGAGACGTGCTAG	-0.498
GACGATTTCGGGAATGGAGACGTGCTA	0.0921
TTAGATCTCGGTTTCGATTAGTGCTAG	7.97
GTAGGTTTCCTTTCCCTTTAGTGCTAG	1.99
GACGAACTGAGTCTCGACACGTGCTAG	0.993
TCAGCTCTTGTTTTCACACTGTGCTAG	0.822
TTAGAACTGAGACTGGATGAGTGCTAG	-0.155
TTAGGATTCCTTCTCCTTTAGTGCTAG	0.451
TTAGTTTTCCTTTTCCTTTAGTGCTAG	2.67
GACGGAATGCTTTTCCTGACGTGCTAG	-0.537
GACGCTCTCCTACTGCTGACGTGCTAG	0.237
TTACGTCTCCTACTGCTTTAGTGCTAG	0.707
TTAGACATCGGGTATCGATTAGTGCTA	2.88
TTAGGTTTCGACTTTCCGTTAGTGCTA	8.94
GACGGTCTCGGTTACGGGACGTGCTAG	4.63
TTAGGACTGGAACTGGGTTAGTGCTAG	-0.633
GACGGTCTCCCTCTCCTGACGTGCTAG	0.527

For quick reference, copied from above (series 4):
Oligonucleotide	fitted relative affinity [z-score]
GACGCTCTCCTACTGCTGACGTGCTAG	0.237
GACGGTCTCCCTCTCCTGACGTGCTAG	0.527
AGGACCATCTCATATAAATAGGTGCTA	0.479
GACGAACTGAGATTCGAGACGTGCTAG	-0.498
